Results pooled from the literature.
Each line is one published result; not all experiments were run side by side. ± marks the error that the study gave.
UniProt P08684, sequence (whole entry, looked up): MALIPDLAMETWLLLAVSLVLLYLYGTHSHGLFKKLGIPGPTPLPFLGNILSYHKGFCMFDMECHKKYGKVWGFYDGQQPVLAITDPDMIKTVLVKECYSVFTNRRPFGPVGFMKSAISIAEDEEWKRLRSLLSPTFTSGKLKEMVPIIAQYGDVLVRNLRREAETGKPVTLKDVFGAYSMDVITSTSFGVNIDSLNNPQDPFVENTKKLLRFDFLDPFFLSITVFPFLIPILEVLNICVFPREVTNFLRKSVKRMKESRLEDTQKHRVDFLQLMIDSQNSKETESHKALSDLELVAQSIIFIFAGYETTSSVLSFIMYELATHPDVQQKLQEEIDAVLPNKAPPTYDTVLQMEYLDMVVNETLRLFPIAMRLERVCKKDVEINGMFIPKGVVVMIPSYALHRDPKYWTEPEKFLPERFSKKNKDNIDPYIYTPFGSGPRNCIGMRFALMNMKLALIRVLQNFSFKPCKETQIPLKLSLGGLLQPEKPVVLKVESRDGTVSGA

The IC50 of `COc1ccc(F)cc1C(=O)NCc1ccc(-c2nn([C@@H](C)C(F)(F)F)c(N)c2C(N)=O)cc1` is reported as > 0.1 µM (Rec1; item: VEGF; 24 h).
With `COc1c(Cl)cccc1Nc1c(-c2ccncc2OC[C@@H]2COCCO2)[nH]c2c1C(=O)NCC2` the IC50 was 0.0011 µM (Ba/F3 expressing HER2 V777L; cell growth, inhibitor, CellTiter-Glo).
With `COc1c(-c2coc3cc4c(cc3c2=O)CC(OC(C)=O)C(C)(C)O4)ccc2c1C=CC(C)(C)O2` (stereo not shown) the IC50 was 123 µM (hTERT-HM; cell viability, WST-1; 72 h).
`C=C1C[C@](OC)([C@H](OCOC/C=C/B2OC(CC)(CC)C(CC)(CC)O2)C(=O)NC[C@@H]2C[C@@H](OC)C(C)(C)[C@@H](C[C@@H](COC)OC)O2)O[C@H](C)[C@@H]1C` gave an IC50 of 0.0031 ± 0.0002 µM (B16; cell viability, sulforhodamine B; 72 h, 37 °C, added: 100 µM H2O2).
For `CC(=O)c1c(O)c(C)c(O)c2c1OC1=CC(=O)C(C(C)=O)C(=O)C12C` (single isomer, unassigned; (+)), the IC50 was 31 µM (hepatocytes, iPSC-derived, line L2; cell viability; 24 h).
The IC50 of `CC(C)C[C@H](NC(=O)[C@H](Cc1ccccc1)NC(=O)c1cnccn1)B(O)O` is reported as 0.00758 µM (uveal melanoma cell lines; cell viability; average over cell lines).
For `C=CS(=O)(=O)c1ccc(Nc2nc(OCC3CCCCC3)c3nc[nH]c3n2)cc1`, the IC50 was 0.89 µM (THP-1; pyroptosis, inhibitor; added: LPS plus nigericin).
`C[C@H]1Oc2cc(cnc2N)-c2c(nn(C)c2C#N)CN(C)C(=O)c2ccc(F)cc21` gave an IC50 of 0.0013 µM (Ba/F3 CLIP1-LTK; cell viability).
For `CCCCN1C[C@H](O)[C@@H](O)[C@@H](O)[C@H]1CO`, the IC50 was 17 µM (sample BA patient fibroblasts; Gb3 level lowering, LC-MS/MS, item: Gb3 d18:1/24:1; 216 h).
With `C[C@@H]1CN(C(=O)c2ccc(NC(=O)c3cc(O[C@H](C)c4c(Cl)ccc(F)c4Cl)c(N)nn3)cc2)C[C@H](C)N1` the IC50 was 0.0216 µM (Ba/F3 EML4-ALK variant 1 L1196Q; cell viability).
The IC50 of `CC[C@@H](C)[C@H](N)C(=O)N1Cc2ccccc2C1` is reported as 0.57 µM (NOMO-1; cell viability, CellTiter-Glo; day 5).
`C=CC(=O)N1CCC[C@@H](n2nc(-c3ccc(Oc4ccccc4)cc3)c3c(N)ncnc32)C1` has an IC50 of 0.086 µM (platelets from XLA patients (Btk-deficient); platelet aggregation; added: CRP 10 µg/mL, 180 s).
With `Cc1noc2c1-c1ccc(-c3cnn(C)c3)cc1C(c1ccc(Cl)cc1)=N[C@H]2CC(N)=O` the IC50 was 0.323 µM (uveal melanoma cell lines; cell viability; average over cell lines).
The Tlast of `CC[C@H]1[C@@H](O)[C@@H]2[C@H](CC[C@]3(C)[C@@H]([C@H](C)CCNC(=O)NS(=O)(=O)c4ccc(C(C)(C)C)cc4)CC[C@@H]23)[C@@]2(C)CC[C@@H](O)C[C@@H]12` is reported as 72 h (Cytochrome P450 3A4 (CYP3A4, Homo sapiens, UniProt P08684); human, plasma; arithmetic mean).
For `O=C1CCCC2=C1C(c1c(C(=O)O)[nH]c3ccccc13)c1c(ccc3ccccc13)O2` (stereo not shown), the IC50 was 46.1 ± 1.66 mg/L (3T3-L1 pre-adipocytes; cell viability, MTT; 72 h).
`Cc1c(C(=O)O)ccc2c3n(nc12)[C@@H]1[C@H](C3)N(CC2CC2)[C@@]2(C(=O)Nc3cc(Cl)ccc32)[C@H]1c1cccc(Cl)c1F` gave an IC50 of 7.27 µM (resistant cancer cell lines; cell viability, PRISM pooled screen; median, low sensitivity).
`O=C(O)c1cc(O)c2c(c1)C(=O)c1cccc(O[C@@H]3O[C@H](CO)[C@@H](O)[C@H](O)[C@H]3O)c1C2=O` gave a cell viability of 47.5 ± 2.72% (HK-2 co-cultured with HepaRG; MTT; 133.33 µM, 48 h; baseline: untreated control).
`CCOc1cc2ncc(C#N)c(Nc3ccc(OCc4ccccn4)c(Cl)c3)c2cc1NC(=O)/C=C/CN(C)C` gave an IC50 of 0.0003 µM (Ba/F3 expressing HER2 V777L; cell growth, inhibitor, CellTiter-Glo).
For `C=CC(=O)N1CC/C(=C\c2ccc(F)c([N+](=O)[O-])c2)C(=O)/C(=C/c2ccc(F)c([N+](=O)[O-])c2)C1`, the IC50 was 0.033 µM (THP1-ASC-GFP cells; ASC speck formation, high-content imaging; 1 h pretreatment, added: LPS priming and nigericin).
`Cc1[nH]c2ccccc2c1CCNCc1ccc(/C=C/C(=O)NO)cc1` gave an IC50 of 0.0259 µM (uveal melanoma cell lines; cell viability; average over cell lines).
`COc1cccc2c3c(c[n+](C)c12)sc1cccc(F)c13` has an IC50 of 6.3 ± 3.1 µM (H1299 (p53 null); cell viability, MTT; 72 h).
For `O=C(O)c1cc(O)c2c(c1)C(=O)c1cccc(O)c1C2=O`, the viability was 101 ± 10.3% (HK-2 co-cultured with HepaRG; MTT; 66.67 µM, 24 h; baseline: untreated control).

A few entries again:
For `O=C1CCCC2=C1C(c1c(C(=O)O)[nH]c3ccccc13)c1c(ccc3ccccc13)O2` (stereo not shown), the IC50 was 46.1 ± 1.66 mg/L (3T3-L1 pre-adipocytes; cell viability, MTT; 72 h).
`Cc1c(C(=O)O)ccc2c3n(nc12)[C@@H]1[C@H](C3)N(CC2CC2)[C@@]2(C(=O)Nc3cc(Cl)ccc32)[C@H]1c1cccc(Cl)c1F` gave an IC50 of 7.27 µM (resistant cancer cell lines; cell viability, PRISM pooled screen; median, low sensitivity).
`O=C(O)c1cc(O)c2c(c1)C(=O)c1cccc(O[C@@H]3O[C@H](CO)[C@@H](O)[C@H](O)[C@H]3O)c1C2=O` gave a cell viability of 47.5 ± 2.72% (HK-2 co-cultured with HepaRG; MTT; 133.33 µM, 48 h; baseline: untreated control).
